Published values collected from several papers.
Every numbered part comes from another study and shows a few of its results, in no order.
Sequence of UniProt P35968 (whole entry, looked up): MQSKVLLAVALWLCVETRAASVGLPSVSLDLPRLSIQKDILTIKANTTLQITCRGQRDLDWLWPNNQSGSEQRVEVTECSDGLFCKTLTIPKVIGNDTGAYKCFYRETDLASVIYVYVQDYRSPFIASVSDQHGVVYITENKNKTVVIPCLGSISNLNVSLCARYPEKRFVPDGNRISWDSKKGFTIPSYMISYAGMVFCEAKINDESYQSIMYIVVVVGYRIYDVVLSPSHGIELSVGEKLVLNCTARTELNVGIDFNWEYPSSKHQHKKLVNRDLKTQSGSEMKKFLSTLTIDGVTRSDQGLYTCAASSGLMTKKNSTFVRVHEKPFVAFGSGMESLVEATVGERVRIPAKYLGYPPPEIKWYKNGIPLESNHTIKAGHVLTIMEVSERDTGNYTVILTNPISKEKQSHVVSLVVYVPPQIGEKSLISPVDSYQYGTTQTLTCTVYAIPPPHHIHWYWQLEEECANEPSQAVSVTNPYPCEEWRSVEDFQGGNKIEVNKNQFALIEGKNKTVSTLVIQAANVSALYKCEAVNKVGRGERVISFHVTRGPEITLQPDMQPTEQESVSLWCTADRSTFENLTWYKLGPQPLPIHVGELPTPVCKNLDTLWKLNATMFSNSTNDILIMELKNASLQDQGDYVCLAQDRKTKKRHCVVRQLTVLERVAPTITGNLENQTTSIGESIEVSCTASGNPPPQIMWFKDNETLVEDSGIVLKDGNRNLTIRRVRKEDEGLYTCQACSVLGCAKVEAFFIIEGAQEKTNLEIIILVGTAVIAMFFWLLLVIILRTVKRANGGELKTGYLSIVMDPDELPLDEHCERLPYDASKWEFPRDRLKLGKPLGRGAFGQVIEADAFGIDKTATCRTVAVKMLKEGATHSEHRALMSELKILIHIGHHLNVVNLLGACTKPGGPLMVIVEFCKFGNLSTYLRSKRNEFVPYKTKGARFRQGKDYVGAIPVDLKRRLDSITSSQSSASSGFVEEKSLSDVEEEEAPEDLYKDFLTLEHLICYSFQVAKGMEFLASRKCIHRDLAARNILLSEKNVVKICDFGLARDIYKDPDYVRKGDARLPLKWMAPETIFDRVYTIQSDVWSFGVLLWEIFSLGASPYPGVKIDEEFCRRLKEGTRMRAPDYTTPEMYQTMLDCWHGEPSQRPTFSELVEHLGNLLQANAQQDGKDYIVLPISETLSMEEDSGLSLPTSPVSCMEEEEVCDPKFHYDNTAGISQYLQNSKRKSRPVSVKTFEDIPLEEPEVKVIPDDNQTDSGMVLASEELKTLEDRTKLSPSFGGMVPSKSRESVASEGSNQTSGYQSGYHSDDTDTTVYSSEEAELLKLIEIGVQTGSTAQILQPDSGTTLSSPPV
Sequence of UniProt Q16566 (whole entry, looked up): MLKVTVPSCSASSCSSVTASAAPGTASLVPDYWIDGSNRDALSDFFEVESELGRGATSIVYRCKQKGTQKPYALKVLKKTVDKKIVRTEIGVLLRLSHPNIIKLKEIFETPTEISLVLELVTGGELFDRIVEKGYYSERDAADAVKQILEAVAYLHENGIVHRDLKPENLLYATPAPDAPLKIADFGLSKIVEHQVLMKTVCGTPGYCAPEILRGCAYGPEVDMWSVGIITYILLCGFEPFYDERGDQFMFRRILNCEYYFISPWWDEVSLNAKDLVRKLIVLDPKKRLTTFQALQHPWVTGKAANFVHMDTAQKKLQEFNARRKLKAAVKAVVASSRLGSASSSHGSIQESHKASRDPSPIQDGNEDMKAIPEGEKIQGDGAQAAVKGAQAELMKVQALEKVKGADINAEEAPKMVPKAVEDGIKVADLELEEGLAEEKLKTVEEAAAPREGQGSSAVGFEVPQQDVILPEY
Sequence of UniProt Q9Y6M4 (whole entry, looked up): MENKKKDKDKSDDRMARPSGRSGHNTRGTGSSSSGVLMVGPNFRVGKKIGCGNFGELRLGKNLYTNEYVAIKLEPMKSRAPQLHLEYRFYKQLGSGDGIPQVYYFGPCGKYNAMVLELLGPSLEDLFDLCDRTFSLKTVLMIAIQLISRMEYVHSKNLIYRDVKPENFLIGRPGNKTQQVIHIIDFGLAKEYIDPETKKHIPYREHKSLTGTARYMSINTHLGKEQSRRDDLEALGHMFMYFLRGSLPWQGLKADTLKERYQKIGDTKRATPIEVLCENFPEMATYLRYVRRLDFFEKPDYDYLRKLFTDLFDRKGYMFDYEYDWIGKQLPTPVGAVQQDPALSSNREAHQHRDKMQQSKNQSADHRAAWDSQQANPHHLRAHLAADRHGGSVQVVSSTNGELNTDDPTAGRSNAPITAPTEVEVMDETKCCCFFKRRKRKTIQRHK
Sequence of UniProt P32298 (whole entry, looked up): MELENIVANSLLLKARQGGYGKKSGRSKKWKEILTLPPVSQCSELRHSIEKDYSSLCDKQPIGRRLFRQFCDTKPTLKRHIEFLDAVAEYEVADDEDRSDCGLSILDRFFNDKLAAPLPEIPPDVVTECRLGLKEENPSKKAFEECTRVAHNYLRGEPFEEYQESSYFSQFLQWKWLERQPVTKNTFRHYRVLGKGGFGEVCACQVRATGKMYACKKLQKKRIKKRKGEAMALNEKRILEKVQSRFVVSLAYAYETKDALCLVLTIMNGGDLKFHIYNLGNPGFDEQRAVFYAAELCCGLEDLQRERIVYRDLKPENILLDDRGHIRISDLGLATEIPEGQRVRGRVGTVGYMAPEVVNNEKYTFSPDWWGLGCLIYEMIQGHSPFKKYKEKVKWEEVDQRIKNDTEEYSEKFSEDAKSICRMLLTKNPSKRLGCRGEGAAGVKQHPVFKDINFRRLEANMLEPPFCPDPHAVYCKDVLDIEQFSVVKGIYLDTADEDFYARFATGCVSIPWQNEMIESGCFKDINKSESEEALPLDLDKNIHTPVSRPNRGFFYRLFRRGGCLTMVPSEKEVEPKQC
Sequence of UniProt Q9H3Y6 (whole entry, looked up): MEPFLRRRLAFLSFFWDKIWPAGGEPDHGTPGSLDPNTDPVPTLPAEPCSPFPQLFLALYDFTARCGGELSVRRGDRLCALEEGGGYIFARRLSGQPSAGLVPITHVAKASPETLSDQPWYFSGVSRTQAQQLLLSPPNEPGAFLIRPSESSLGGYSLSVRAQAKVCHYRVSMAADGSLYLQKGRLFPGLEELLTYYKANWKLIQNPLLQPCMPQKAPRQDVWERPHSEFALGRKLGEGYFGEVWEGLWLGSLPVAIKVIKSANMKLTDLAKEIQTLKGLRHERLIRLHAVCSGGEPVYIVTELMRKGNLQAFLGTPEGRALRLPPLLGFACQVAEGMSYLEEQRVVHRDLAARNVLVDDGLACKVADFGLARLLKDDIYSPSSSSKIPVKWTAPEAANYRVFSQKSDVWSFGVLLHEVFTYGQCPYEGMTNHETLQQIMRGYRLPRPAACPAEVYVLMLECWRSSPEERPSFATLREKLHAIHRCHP
Sequence of UniProt P43403 (whole entry, looked up): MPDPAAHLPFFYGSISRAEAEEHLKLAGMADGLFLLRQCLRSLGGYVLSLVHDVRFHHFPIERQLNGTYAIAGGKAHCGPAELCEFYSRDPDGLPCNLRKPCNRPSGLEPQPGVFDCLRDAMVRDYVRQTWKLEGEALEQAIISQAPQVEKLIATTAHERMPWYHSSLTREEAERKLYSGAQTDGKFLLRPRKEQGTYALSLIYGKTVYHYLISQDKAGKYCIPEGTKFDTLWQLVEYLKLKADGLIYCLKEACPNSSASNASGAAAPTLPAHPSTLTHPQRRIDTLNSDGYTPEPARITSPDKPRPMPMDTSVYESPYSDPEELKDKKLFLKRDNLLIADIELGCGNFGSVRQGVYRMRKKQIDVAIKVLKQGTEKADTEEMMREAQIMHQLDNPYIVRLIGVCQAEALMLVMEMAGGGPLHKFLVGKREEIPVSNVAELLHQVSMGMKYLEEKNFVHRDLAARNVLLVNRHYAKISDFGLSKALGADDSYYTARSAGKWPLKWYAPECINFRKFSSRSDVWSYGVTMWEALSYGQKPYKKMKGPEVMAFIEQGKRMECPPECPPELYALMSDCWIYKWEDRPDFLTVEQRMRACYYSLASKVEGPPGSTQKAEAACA
Sequence of UniProt P31751 (whole entry, looked up): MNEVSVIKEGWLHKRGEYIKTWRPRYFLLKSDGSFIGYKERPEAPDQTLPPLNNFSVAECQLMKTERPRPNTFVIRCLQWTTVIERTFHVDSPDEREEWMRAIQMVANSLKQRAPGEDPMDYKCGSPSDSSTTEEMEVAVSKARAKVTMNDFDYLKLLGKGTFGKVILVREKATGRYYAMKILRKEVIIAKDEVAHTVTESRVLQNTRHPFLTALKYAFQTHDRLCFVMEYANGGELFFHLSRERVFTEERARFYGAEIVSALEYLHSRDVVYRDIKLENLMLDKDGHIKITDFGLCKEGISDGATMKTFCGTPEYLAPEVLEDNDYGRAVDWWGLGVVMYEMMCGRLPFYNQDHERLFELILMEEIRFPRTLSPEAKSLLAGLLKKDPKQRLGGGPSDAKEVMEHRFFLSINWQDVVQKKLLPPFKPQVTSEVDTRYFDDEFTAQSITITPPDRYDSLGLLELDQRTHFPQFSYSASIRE
Sequence of UniProt Q8TBX8 (whole entry, looked up): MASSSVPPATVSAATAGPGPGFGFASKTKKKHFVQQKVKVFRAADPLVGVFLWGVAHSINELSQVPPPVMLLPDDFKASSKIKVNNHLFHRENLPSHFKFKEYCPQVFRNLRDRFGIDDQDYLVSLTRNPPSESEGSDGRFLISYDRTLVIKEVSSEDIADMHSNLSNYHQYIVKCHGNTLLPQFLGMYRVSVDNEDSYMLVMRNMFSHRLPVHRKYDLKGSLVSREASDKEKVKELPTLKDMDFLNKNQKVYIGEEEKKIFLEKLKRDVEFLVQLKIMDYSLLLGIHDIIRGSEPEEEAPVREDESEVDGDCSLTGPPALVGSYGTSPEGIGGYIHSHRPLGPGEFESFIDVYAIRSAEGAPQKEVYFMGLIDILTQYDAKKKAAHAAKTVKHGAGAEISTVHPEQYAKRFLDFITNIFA

Block 1
SMILES: CCOC(=O)c1cc2cc(-c3cc(C(=O)NCc4ccc(C(=O)O)cc4)nn3C)ccc2[nH]1
Effect on: cell-free assay
Technique: competition with immobilised ligand
Concentration: 0.1 µM
Quantity: remaining binding
EGFR (Homo sapiens, UniProt P00533, L858R): 91%
MET (Homo sapiens, UniProt P08581, Y1235D): 86%
MERTK (Homo sapiens, UniProt Q12866): 100%
PIP4K2C (Homo sapiens, UniProt Q8TBX8): 95%
CSNK1G3 (Homo sapiens, UniProt Q9Y6M4): 100%
ANKK1 (Homo sapiens, UniProt Q8NFD2): 100%

Block 2
SMILES: C=CC(=O)N1CCC[C@@H](n2nc(-c3ccc(Oc4ccccc4)cc3)c3c(N)ncnc32)C1
Action: inhibitor
Concentration: 1 µM
Quantity: inhibition
MAPK12 (Homo sapiens, UniProt P53778); enzyme activity: 23%
SRMS (Homo sapiens, UniProt Q9H3Y6); enzyme activity: 100%
TSSK1B (Homo sapiens, UniProt Q9BXA7); enzyme activity: 14%
Tyrosine-protein kinase ABL1, phosphorylated (ABL1, Homo sapiens, UniProt P00519, F317L): 32%
PIK3CA (Homo sapiens, UniProt P42336, Q546K); enzyme activity: 14%
ZAP70 (Homo sapiens, UniProt P43403); enzyme activity: 5%
KDR (Homo sapiens, UniProt P35968); enzyme activity: 51%
ERBB3 (Homo sapiens, UniProt P21860); enzyme activity: 100%

Block 3
Compound: CC(C)c1nn(-c2c(Cl)cccc2Cl)c2nc(Cc3ccc(OCCO)cc3)[nH]c(=O)c12
Effect on: enzyme activity
Action: inhibitor
Concentration: 0.5 µM
Baseline: control
Quantity: remaining activity
MET (Homo sapiens, UniProt P08581): 91%
PLK3 (Homo sapiens, UniProt Q9H4B4): 99.1%
CLK4 (Homo sapiens, UniProt Q9HAZ1): 81.2%
GRK4 (Homo sapiens, UniProt P32298): 97.3%
AKT2 (Homo sapiens, UniProt P31751): 92.4%
MAPK14 (Homo sapiens, UniProt Q16539): 96.8%
CLK3 (Homo sapiens, UniProt P49761): 91.3%
MINK1 (Homo sapiens, UniProt Q8N4C8): 97.1%
DDR2 (Homo sapiens, UniProt Q16832): 96.3%
RPS6KA4 (Homo sapiens, UniProt O75676): 95.3%
PRKG2 (Homo sapiens, UniProt Q13237): 61.6%
CAMK4 (Homo sapiens, UniProt Q16566): 102%
NEK3 (Homo sapiens, UniProt P51956): 87.3%
KDR (Homo sapiens, UniProt P35968): 105%

Block 4
Species: mouse
Medium: microsomes or S9
Concentration: 2 µM
Time: 0.5 h
Quantity: remaining compound
COc1ccc2ccccc2c1-c1cc(CN)on1: 57.9%
CCOC(=O)C(Cc1ccccc1)(NC(C)=O)C(=O)OCC: 64.1%
Cn1ccc(-c2ccc(-c3cc(Br)cnc3N)nc2)n1: 18.1%
O=C(NC12CC3CC(CC(C3)C1)C2)C1CCN(c2cc(-n3cccc3)ncn2)CC1: 11.3%
CC(Cc1ccsc1)NC(=O)c1cccc2c1OC(C)C(=O)N2 (stereo not drawn): 2.8%
Cc1ccn(CCC(=O)N(Cc2ccncc2)Cc2cccc(OCCc3ccc(F)cc3)c2)n1: 2.41%
Cc1c(C)c(C)c(CNC(=O)C2CNC(=O)C2)c(C)c1C (stereo not drawn): 45.6%
O=C(c1c(-c2ccccc2)cc(=O)n2c1CCC2)N1CCCC1: 94.2%

Excerpt of the above (block 4):
COc1ccc2ccccc2c1-c1cc(CN)on1: 57.9%
CCOC(=O)C(Cc1ccccc1)(NC(C)=O)C(=O)OCC: 64.1%
